Measurements of several laboratories.
A part holds a random share of what one study measured. Changes are numbered by the printed parent chain.

Set 1
Target: ABI1, truncated, D143A, DHFR fusion (Arabidopsis thaliana)
Method: DHFR PCA, deep sequencing
Matrix: yeast
Notes: methotrexate growth selection, single substitutions
With: (+)-ABA 710 µM
Baseline: wild-type fitted maximum
Direction: higher = stronger binding
Parent: PYL1, truncated, DHFR fusion (Arabidopsis thaliana); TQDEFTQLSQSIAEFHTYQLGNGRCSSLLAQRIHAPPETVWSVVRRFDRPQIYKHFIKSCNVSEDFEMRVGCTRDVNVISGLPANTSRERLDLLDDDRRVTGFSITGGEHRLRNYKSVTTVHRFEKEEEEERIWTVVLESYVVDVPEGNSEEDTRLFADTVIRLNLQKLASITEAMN; partner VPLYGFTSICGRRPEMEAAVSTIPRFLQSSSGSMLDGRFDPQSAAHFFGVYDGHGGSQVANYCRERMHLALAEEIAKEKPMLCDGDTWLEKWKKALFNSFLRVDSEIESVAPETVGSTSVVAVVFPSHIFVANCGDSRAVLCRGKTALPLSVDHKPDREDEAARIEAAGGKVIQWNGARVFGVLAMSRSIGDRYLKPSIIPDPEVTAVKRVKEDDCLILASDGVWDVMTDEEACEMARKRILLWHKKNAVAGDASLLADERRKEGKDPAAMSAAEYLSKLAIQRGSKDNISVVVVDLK
`M176H`: “relative binding score” 100%.
Under “relative binding score”, `F47D` is recorded as -13.5%.
`E139Q`: “relative binding score” 96.5%.
`P146V`: “relative binding score” 81%.
`V70T`: “relative binding score” 93.9%.
Under “relative binding score”, `L166T` is recorded as -1.93%.
Under “relative binding score”, `N177K` is recorded as 97.7%.
`T39G`: “relative binding score” 91.6%.
Under “relative binding score”, `V62R` is recorded as 79.5%.
`V137K` — result for “relative binding score”: 1.77%.
Under “relative binding score”, `G108C` is recorded as 54.6%.
`E89T` — result for “relative binding score”: 17.5%.
Under “relative binding score”, `I57V` is recorded as 103%.
Under “relative binding score”, `S42I` is recorded as 85.4%.
`C25V`: “relative binding score” 106%.

Set 2
Target: CCNA2, cyclin fold, Cln2 fusion (human)
Method: yeast growth competition, sequencing
Matrix: yeast
Notes: weak parent motif
Baseline: not given
Direction: higher = stronger binding
Parent: HIRA docking peptide (human); SLSKRKLELEVET
`SASKRKLELEVET [L2A]`: “normalised enrichment score” 0.425.
Under “normalised enrichment score”, `SLSKKKLELEVET [R5K]` is recorded as 0.392.
For `SLSKRKLEAEVET [L9A]`, “normalised enrichment score” read -0.265.
`SLSKRKLELEAET [V11A]` — result for “normalised enrichment score”: -0.115.
`SLSARKLELEVET [K4A]`: “normalised enrichment score” -0.0589.
`SLSKRKLALEVET [E8A]`: “normalised enrichment score” 0.49.
`SLAKRKLELEVET [S3A]` — result for “normalised enrichment score”: 1.51.

Set 3
Target: RNA binding protein fox-1 homolog 2, RRM domain, GST-SBP tag (RBFOX2, Homo sapiens, UniProt O43251-10, residues 100-194)
Method: RNA Bind-n-Seq
Molecule type: RNA
Matrix: in vitro
Tested at: 365 nM
Notes: natural RNA segment, single round, ends assumed
Baseline: no-protein control
Direction: higher = stronger binding
Construct (chain): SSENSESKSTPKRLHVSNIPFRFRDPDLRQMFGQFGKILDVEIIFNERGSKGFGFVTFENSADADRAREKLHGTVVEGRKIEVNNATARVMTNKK
For `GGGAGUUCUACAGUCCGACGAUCCAGAACCAGAGGCUUGGUCCCACAGGCCACGGACCAAUGGCCUGCAGCCGUGACAACACUCCUGUCAUAUUGGAGUCCAAAACUUGAAUUCUGGGUUGAAUUUUUUAAAAUGGAAUUCUCGGGUGCCAA`, “RBNS enrichment (R)” read 0.281.
Under “RBNS enrichment (R)”, `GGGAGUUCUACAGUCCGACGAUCAACCCGGGGUGCCAGGAACACACACAUCCUCCAUCCCAGCAUAGAGAAUGGGGACUCCCUGAGUAAUGGGAGUUCUUUCAUGGCCUCUGCUUGGGGUGGGGGAGUCAGCAUGGAAUUCUCGGGUGCCAA` is recorded as 1.11.
Under “RBNS enrichment (R)”, `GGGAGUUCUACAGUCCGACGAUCGCCUUUUGGAAAACAUCAACAGCUGUUUAGAAAUGCAGCUGUAGUCUAUGAUUUUCUCUCCAGACUCAUUGAAAAAGCUUCAGUCAACAGAAAGCCUCAGCUACCUCAGCUGGAAUUCUCGGGUGCCAA` is recorded as 0.361.
Under “RBNS enrichment (R)”, `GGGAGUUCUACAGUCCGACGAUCGCACCACUGUGUUGUGGCUUGUUGACCGGGAAUGUGUCACCCCUGCCAGGGAACUCUUCUCCUCGCGGGGGACUUGGGAUGGCCAUCAGACCUUCUAGGGUCUGGCUGGGUGGAAUUCUCGGGUGCCAA` is recorded as 0.234.
`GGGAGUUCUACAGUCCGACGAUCACAGAGUUACAGAUACACAAUCAAGAGUGUUCUUGCUGAUGCUCGGGGUCUGAAGACUGUCUUCCUAUCUGCUUCUUGCGGCUGAGGAGAGGAGCAGUUCAGUUUACAAAUGGAAUUCUCGGGUGCCAA`: “RBNS enrichment (R)” 0.696.
For `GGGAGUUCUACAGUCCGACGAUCUUGAUACGAGGGCAGUCUUAACUUGUGUUAAGGCCUGUGUGUAGCAUUGAAGGGAGGAGUUGCUUAAACCAAUGGGACUAAAACCUGAUGGGACAAUAACGCCUUUGGAGUGGAAUUCUCGGGUGCCAA`, “RBNS enrichment (R)” read 0.267.
For `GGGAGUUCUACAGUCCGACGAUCAAAUAGGCCUACAUCCAAAAUAUUAUCUUGUGACUCCAUGAACCAUUCAUUAACCCUUUGUAUCUUUGAGUGAAAAUUUUACUCAAAAGUUGCAUCUGGAAGUUCGAAGAUGGAAUUCUCGGGUGCCAA`, “RBNS enrichment (R)” read 0.266.
For `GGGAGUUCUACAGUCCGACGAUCACCUGUCACCAGCAGCCUGCGAGGGAAUGCGAGGUUGAUUGUCCCAGAGGCUCCCAACCCAUGCGCUACCAAAUACGCCUGGGCAGCCGGGCGGGCCAGCGGGCACCAGGUGGAAUUCUCGGGUGCCAA`, “RBNS enrichment (R)” read 0.231.
Under “RBNS enrichment (R)”, `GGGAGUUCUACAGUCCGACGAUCCCUAAGCCGUUUGUACCUUAGUUUUAGCGUUCGGCCUCACCUAGCAAUCAAGGGCCCGUUUGGAGAAGCAGAAAUGAUUCCCUCCAGUGCCCUGUCUACCUUCCCCAGGCUGGAAUUCUCGGGUGCCAA` is recorded as 0.254.
`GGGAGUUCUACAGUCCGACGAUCUUUAUGAAUUUUAUAUUCCGUGAAUGUAUAUUGUCUUGUAAUGUUGCAUAGUGUUCACUUUUUAUAGCUGUCCUUUAUUCUAAACAGUAAAGUGGUUUUAUUUCUAUCACUGGAAUUCUCGGGUGCCAA`: “RBNS enrichment (R)” 1.2.
Under “RBNS enrichment (R)”, `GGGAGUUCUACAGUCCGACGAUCCUUCAAGCAUGACUGUUAAUGGCUCCUCUGUGACAAAACACAAGUUGGACCAAGGAGAAAGCCCUUUGGAGAAACUGGACCCUAGUUCAGUUUAGAUCUCAAAUAUAGGCUGGAAUUCUCGGGUGCCAA` is recorded as 0.441.
For `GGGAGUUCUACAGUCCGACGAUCUUGUCACAGAAGAGAGAAAAGAUCAUUGAGGACAGUUGCCUUGGGAGAGUUCAAGUCUUUGUCGUUACACACUGCUGUUUUGAUUAUUGGUCUUAGUUUUGAUCCUGUUGUGGAAUUCUCGGGUGCCAA`, “RBNS enrichment (R)” read 0.709.

Single results of other studies
With `PhoQ, residues 284 288 289 292 302 303 ALSMDL` the fold induction was 18.1 (PhoP, residues 12 14 15 18 19 NFCKL (Escherichia coli, UniProt P23836); Sort-seq, item: YFP reporter; E. coli; PhoQ-PhoP variant library, with: 10 µM Mg2+; baseline: high Mg2+ state, higher = stronger signaling).

Some of these lines once more (set 1):
Under “relative binding score”, `N177K` is recorded as 97.7%.
`T39G`: “relative binding score” 91.6%.
Under “relative binding score”, `V62R` is recorded as 79.5%.
`V137K` — result for “relative binding score”: 1.77%.
Under “relative binding score”, `G108C` is recorded as 54.6%.
